Published values pooled from the literature.
Compare with care: the assays were run in different laboratories.
Target: Testis-specific serine/threonine-protein kinase 1 (TSSK1B, Homo sapiens, UniProt Q9BXA7)

| SMILES | test | conditions | scale | endpoint | result |
| --- | --- | --- | --- | --- | --- |
| CCN1CCN(Cc2ccc(NC(=O)c3ccc(C)c(NC(=O)c4cncc(-c5cnn(C)c5)c4)c3)cc2C(F)(F)F)CC1 | binding, competition with immobilised ligand | 1 µM |  | remaining binding | 91% |
| Nc1ncc(-c2cc(-c3cnn(CC(F)(F)F)c3)ncc2F)nc1C(=O)NC1CNCC(F)C1 (stereo not shown) | enzyme activity | 1 µM | relative to: DMSO control | remaining activity | 80.8% |
| O=C(Cc1ccc(OCc2ccccc2)cc1)NC1(C(=O)O)CCN(C(=O)c2ccc(-c3cccc(Cl)c3)cc2)CC1 | enzyme activity, inhibitor | 10 µM |  | activity vs control | 105% |
| COc1cc(Nc2nccc(-c3cnn4nc(OC)ccc34)n2)cc(C(F)(F)F)c1 | binding, competition with immobilised ligand | 1 µM |  | remaining binding | 100% |
| CN1CCN(Cc2ccc(NC(=O)c3cccc(C#Cc4cnc(N)c5ncccc45)c3)cc2C(F)(F)F)CC1 | cell-free assay, competition with immobilised ligand | 0.5 µM |  | remaining binding | 81% |
| COc1ccc(NC(=O)Nc2ccc3c(c2)C(=O)N(C(C)CO)CC(C)C(CN(C)Cc2ccc4c(c2)OCO4)O3)cc1 (stereo not shown) | binding, competition with immobilised ligand | 10 µM |  | remaining binding | 57% |
| Cc1nc2c(F)cc(-c3nc(Nc4ccc(CNC(=O)CCCCCCC(=O)NO)cc4)ncc3F)cc2n1C(C)C | enzyme activity, inhibitor | 1 µM |  | inhibition | 77% |
| CCn1cc(C(=O)O)c(=O)c2c(N)c(F)c(NC3CCCCC3)cc21 | kinase activity | 0.1 µM, added: ATP at Km |  | inhibition | 1.7% |
| CNC(=O)C[C@H](Cc1ccc(C#N)cc1)NC(=O)c1cc(-c2ccc(CN[C@H](C)c3ccc(C)cc3)o2)ccc1Cl | enzyme activity, inhibitor | 1 µM |  | activity vs control | 102% |
| CN1CCN(Cc2ccc(-c3ccc(CO[C@H]4CCC[C@@H]4NC(=O)c4cc(-c5cnn(C)c5)cnc4N)cc3)cc2)CC1 | enzyme activity, inhibitor | 0.1 µM |  | inhibition | 14% |
| CCN1CCN(Cc2ccc(C(=O)Nc3ccc(C)c(NCc4cnc5[nH]ccc5c4OC)c3)cc2C(F)(F)F)CC1 | binding, competition with immobilised ligand | 1 µM |  | remaining binding | 78% |
| COc1c(Cl)cccc1Nc1c(-c2ccncc2C#C[C@@]2(C)CCCN2C(=O)/C=C/CN(C)C)[nH]c2c1C(=O)NCC2 | binding, competition with immobilised ligand | 3 µM |  | remaining binding | 84% |
| Cc1cccc(O[C@H]2CCC[C@@H](C(C)CNCc3ccncc3)C2)c1 (relative stereo) | enzyme activity, inhibitor | 1 µM |  | inhibition | -5% |
| CN1CC[C@@H](COc2cnc(C#N)cc2-c2ccn3nc(NC(=O)C4CC4)cc3c2)C1 | enzyme activity, inhibitor | 1 µM |  | inhibition | 3% |
| O=C=[N][Ru-4]123([n]4c5ccc(O)cc5c5c6c(c7cc(F)c[n+]1c7c54)C(=O)NC6=O)[S+]1CC[S+]2CC[S+]3CC1 (stereo not shown) | enzyme activity | 100 nM, human enzyme, added: 10 µM ATP | relative to: untreated | remaining activity | 50% |
| NC(=O)C[C@H]1CCc2sc3ncnc(O[C@H]4CC[C@H](N5CCOCC5)CC4)c3c21 | enzyme activity, inhibitor | 10 µM |  | inhibition | -2% |
| Cc1cnc2nc1Nc1cccc(c1)COC/C=C/COCc1cc(ccc1OCCN1CCOCC1)N2 | binding, competition with immobilised ligand | 0.1 µM |  | remaining binding | 100% |
| C=CC(=O)Nc1cccc(-c2cnc3[nH]cc(C(=O)NC(C)(C)C)c3n2)c1 | enzyme activity, inhibitor | 0.1 µM |  | inhibition | 15% |
| CC(C)=CC1OC(C)(C)C2C=C3C(=O)C(Cl)=CC(O)C3C3C(O)C4OC4C(=O)C132 (stereo not shown) | cell-free assay, competition with immobilised ligand | 10 µM |  | remaining binding | 100% |

Some of these lines once more:
| SMILES | test | conditions | scale | endpoint | result |
| --- | --- | --- | --- | --- | --- |
| CN1CCN(Cc2ccc(-c3ccc(CO[C@H]4CCC[C@@H]4NC(=O)c4cc(-c5cnn(C)c5)cnc4N)cc3)cc2)CC1 | enzyme activity, inhibitor | 0.1 µM |  | inhibition | 14% |
| COc1c(Cl)cccc1Nc1c(-c2ccncc2C#C[C@@]2(C)CCCN2C(=O)/C=C/CN(C)C)[nH]c2c1C(=O)NCC2 | binding, competition with immobilised ligand | 3 µM |  | remaining binding | 84% |
| O=C=[N][Ru-4]123([n]4c5ccc(O)cc5c5c6c(c7cc(F)c[n+]1c7c54)C(=O)NC6=O)[S+]1CC[S+]2CC[S+]3CC1 (stereo not shown) | enzyme activity | 100 nM, human enzyme, added: 10 µM ATP | relative to: untreated | remaining activity | 50% |
